Published values of several laboratories.
Each line is one published result; not all experiments were run side by side.
FLT3 D835H: Receptor-type tyrosine-protein kinase FLT3 (FLT3, Homo sapiens, UniProt P36888, D835H)
FLT3 D835V: Receptor-type tyrosine-protein kinase FLT3 (FLT3, Homo sapiens, UniProt P36888, D835V)
FLT3 D835Y: Receptor-type tyrosine-protein kinase FLT3 (FLT3, Homo sapiens, UniProt P36888, D835Y)
FLT3 R834Q: Receptor-type tyrosine-protein kinase FLT3 (FLT3, Homo sapiens, UniProt P36888, R834Q)

SMILES	target	test	conditions	how to read	remaining binding [%]
CNC(=O)C1CCN(c2cc(C)c(F)cc2NC(=O)c2ccc(-c3cc(O)ccc3C)c(C)c2)CC1	FLT3 D835H	binding, competition with immobilised ligand	1 µM	–	100
C=CC(=O)N1CCCC(n2c(=O)c3ncccc3n(Cc3ccc(Oc4ccccc4)cc3)c2=O)C1 (centres unmarked)	FLT3 D835H	cell-free assay, competition with immobilised ligand	1 µM	–	72
CNC1C[S+]2CC[S+]3CC[S+](C1)[Ru-4]321([N]=C=S)[n]2c3ccc(OC)cc3c3c4c(c5cc(F)c[n+]1c5c32)C(=O)NC4=O (centres unmarked)	FLT3 D835H	KinomeScan	0.1 µM	relative to: untreated	30
CC(C)=CC1OC(C)(C)C2C=C3C(=O)C(Cl)=CC(O)C3C3C(O)C4OC4C(=O)C132 (centres unmarked)	FLT3 D835V	cell-free assay, competition with immobilised ligand	10 µM	–	100
CCN1CCN(Cc2ccc(NC(=O)c3ccc(C)c(NC(=O)c4cncc(-c5cccs5)c4)c3)cc2C(F)(F)F)CC1	FLT3 (Homo sapiens, UniProt P36888)	binding, competition with immobilised ligand	1 µM	–	0.65
Cc1ccc(-c2c(/C=C(\C#N)C(=O)NC(C)C)n(CCCO)c3ncnc(N)c23)cc1	FLT3 D835Y	binding, competition with immobilised ligand	1 µM	–	91
Nc1ncc2c(n1)-c1c([nH]c3ccc(C4=CCOCC4)cc13)CCC2	FLT3 D835V	binding, competition with immobilised ligand	1 µM	–	80
CCN1CCN(Cc2ccc(C(=O)Nc3ccc(C)c(NCc4cnc5[nH]ccc5c4OC)c3)cc2C(F)(F)F)CC1	FLT3 R834Q	binding, competition with immobilised ligand	1 µM	–	4.7
Cc1cnc2nc1Nc1cccc(c1)COC/C=C/COCc1cc(ccc1OCCN1CCOCC1)N2	FLT3 R834Q	binding	0.1 µM	–	5.7
C=CC(=O)N1CCc2ccc(-n3c(=O)ccc4cnc5ccc(-c6cnn(C)c6)cc5c43)cc21	FLT3 R834Q	KINOMEscan	1 µM	relative to: DMSO control	99
COc1c(Cl)cccc1Nc1c(-c2ccncc2C#C[C@@]2(C)CCCN2C(=O)/C=C/CN(C)C)[nH]c2c1C(=O)NCC2	FLT3 D835Y	binding, competition with immobilised ligand	3 µM	–	91
